Experimental data collected from several papers.
Lines come from different studies, so protocols differ. Values joined by “and” are separate records of one study, mostly repeats; a detail may differ.
Target: Protein kinase C iota type (PRKCI, Homo sapiens, UniProt P41743)
One construct used (P41743 1-596): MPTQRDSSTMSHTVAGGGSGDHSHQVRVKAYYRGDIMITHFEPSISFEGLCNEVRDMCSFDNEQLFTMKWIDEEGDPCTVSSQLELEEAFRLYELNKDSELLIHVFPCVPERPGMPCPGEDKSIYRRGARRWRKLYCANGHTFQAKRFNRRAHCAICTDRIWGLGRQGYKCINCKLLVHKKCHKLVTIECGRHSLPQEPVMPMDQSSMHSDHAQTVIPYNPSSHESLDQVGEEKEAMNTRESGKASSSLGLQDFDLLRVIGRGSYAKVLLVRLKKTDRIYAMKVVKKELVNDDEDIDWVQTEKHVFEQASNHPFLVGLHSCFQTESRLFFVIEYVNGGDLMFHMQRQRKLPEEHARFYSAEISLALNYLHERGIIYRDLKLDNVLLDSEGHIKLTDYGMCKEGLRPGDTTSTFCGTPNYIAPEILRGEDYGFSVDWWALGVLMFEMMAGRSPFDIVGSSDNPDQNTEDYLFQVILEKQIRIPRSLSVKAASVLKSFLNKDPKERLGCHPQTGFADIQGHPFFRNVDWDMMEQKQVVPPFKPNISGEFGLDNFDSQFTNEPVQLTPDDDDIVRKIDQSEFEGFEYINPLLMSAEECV

`COc1ccc(NC(=O)Nc2ccc3c(c2)C(=O)N(C(C)CO)CC(C)C(CN(C)Cc2ccc4c(c2)OCO4)O3)cc1` (stereo not shown) has a remaining activity of 99% (kinase activity, KinaseProfiler; 0.03 µM, species human; relative to: control).
`CN1CC[C@@H](COc2cnc(C#N)cc2-c2ccn3nc(NC(=O)C4CC4)cc3c2)C1` gave an inhibition of -1% (enzyme activity, inhibitor; 1 µM).
`CNC(=O)C[C@H](Cc1ccc(C#N)cc1)NC(=O)c1cc(-c2ccc(CN[C@H](C)c3ccc(C)cc3)o2)ccc1Cl` — result for “activity vs control”: 96% (enzyme activity, inhibitor; 1 µM).
With `Cc1ccc(-c2c(/C=C(\C#N)C(=O)NC(C)C)n(CCCO)c3ncnc(N)c23)cc1` the remaining binding was 72% (cell-free assay, competition with immobilised ligand; 1 µM).
For `Cc1nc2c(F)cc(-c3nc(Nc4ccc(CNC(=O)CCCCCCC(=O)NO)cc4)ncc3F)cc2n1C(C)C`, the inhibition was 28% (enzyme activity, inhibitor; 1 µM).
`C=CC(=O)N1CCCC(n2c(=O)c3ncccc3n(Cc3ccc(Oc4ccccc4)cc3)c2=O)C1` (stereo not shown) gave a remaining binding of 92% (cell-free assay, competition with immobilised ligand; 1 µM).
For `COc1cc(Nc2nccc(-c3cnn4nc(OC)ccc34)n2)cc(C(F)(F)F)c1`, the remaining binding was 98% (binding, competition with immobilised ligand; 1 µM).
`Cc1cccc(O[C@H]2CCC[C@@H](C(C)CNCc3ccncc3)C2)c1` (relative stereo) has an inhibition of -4% (enzyme activity; 10 µM).
With `CC(C)=CC1OC(C)(C)C2C=C3C(=O)C(Cl)=CC(O)C3C3C(O)C4OC4C(=O)C132` (stereo not shown) the remaining binding was 76% (cell-free assay, competition with immobilised ligand; 10 µM).
The remaining binding of `CNC(=O)C1CCN(c2cc(C)c(F)cc2NC(=O)c2ccc(-c3cc(O)ccc3C)c(C)c2)CC1` is reported as 84% (binding, competition with immobilised ligand; 1 µM).
For `NC(=O)C[C@H]1CCc2sc3ncnc(O[C@H]4CC[C@H](N5CCOCC5)CC4)c3c21`, the inhibition was 3% (enzyme activity, inhibitor; 10 µM).
With `C=CC(=O)Nc1cccc(-c2cnc3[nH]cc(C(=O)NC(C)(C)C)c3n2)c1` the inhibition was 1% (enzyme activity, inhibitor; 0.1 µM).
For `CNC1C[S+]2CC[S+]3CC[S+](C1)[Ru-4]321([N]=C=S)[n]2c3ccc(OC)cc3c3c4c(c5cc(F)c[n+]1c5c32)C(=O)NC4=O` (stereo not shown), the remaining binding was 100% (KinomeScan; 0.1 µM; relative to: untreated).
`Nc1ncc(-c2cc(-c3cnn(CC(F)(F)F)c3)ncc2F)nc1C(=O)NC1CNCC(F)C1` (stereo not shown) has a remaining activity of 91.2% (enzyme activity; 1 µM; relative to: DMSO control).
For `COCC12C(=O)NC3C4(C(OC)CC1O)C1CC5(O)C(OC)C(O)C(OC(C)=O)(C1C5OC(=O)c1ccccc1)C3(O)C(OC)C24` (stereo not shown), the remaining activity was 90% and 104% (kinase activity, inhibitor, ProQinase kinase profiling; 25 µM; relative to: control).
The remaining activity of `O=c1c(-c2ccc(Cl)c(CN3CCOCC3)c2)coc2cc(O)ccc12` is reported as 98% (enzyme activity, inhibitor; 1 µM).

For quick reference, copied from above:
`C=CC(=O)N1CCCC(n2c(=O)c3ncccc3n(Cc3ccc(Oc4ccccc4)cc3)c2=O)C1` (stereo not shown) gave a remaining binding of 92% (cell-free assay, competition with immobilised ligand; 1 µM).
For `COc1cc(Nc2nccc(-c3cnn4nc(OC)ccc34)n2)cc(C(F)(F)F)c1`, the remaining binding was 98% (binding, competition with immobilised ligand; 1 µM).
